Measured values gathered from unrelated publications.
Each numbered part is a random draw from the data of one study; scales do not carry over between parts. Substitutions count along the parent as printed.

Series 1
Target: Sal-like protein 4, full length isoform A (SALL4, Homo sapiens, UniProt Q9UJQ4, residues 1-1053)
Chain of UniProt Q9UJQ4 (whole entry, looked up): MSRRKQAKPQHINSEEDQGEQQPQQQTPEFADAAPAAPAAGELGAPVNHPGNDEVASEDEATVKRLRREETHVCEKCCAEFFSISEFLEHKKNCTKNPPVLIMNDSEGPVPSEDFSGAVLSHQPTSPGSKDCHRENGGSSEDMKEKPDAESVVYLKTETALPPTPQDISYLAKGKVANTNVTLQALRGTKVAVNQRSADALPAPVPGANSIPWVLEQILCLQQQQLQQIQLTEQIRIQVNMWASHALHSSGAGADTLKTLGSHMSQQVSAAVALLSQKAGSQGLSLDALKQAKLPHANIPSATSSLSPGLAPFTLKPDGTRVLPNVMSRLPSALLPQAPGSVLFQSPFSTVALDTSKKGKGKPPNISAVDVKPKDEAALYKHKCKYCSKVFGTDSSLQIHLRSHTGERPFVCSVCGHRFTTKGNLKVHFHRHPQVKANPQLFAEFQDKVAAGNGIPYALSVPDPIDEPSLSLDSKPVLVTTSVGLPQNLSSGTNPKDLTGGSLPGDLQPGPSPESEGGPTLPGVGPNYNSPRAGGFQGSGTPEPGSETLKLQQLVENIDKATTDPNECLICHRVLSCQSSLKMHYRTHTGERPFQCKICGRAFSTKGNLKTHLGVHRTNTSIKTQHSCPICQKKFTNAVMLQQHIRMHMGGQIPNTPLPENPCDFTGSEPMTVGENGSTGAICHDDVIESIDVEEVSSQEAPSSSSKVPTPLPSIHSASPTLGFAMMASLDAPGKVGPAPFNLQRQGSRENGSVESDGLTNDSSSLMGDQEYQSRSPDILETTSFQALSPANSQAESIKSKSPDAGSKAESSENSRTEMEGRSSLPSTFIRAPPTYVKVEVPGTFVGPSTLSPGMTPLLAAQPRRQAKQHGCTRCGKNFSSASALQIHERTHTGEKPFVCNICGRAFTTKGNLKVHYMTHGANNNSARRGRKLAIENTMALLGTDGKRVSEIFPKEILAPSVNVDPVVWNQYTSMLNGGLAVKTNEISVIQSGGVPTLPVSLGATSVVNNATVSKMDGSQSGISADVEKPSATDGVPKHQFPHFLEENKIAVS
Technique: universal PBM
Form: double-stranded DNA, one strand shown
Medium: in vitro
Concentration: 600 nM
Setting: 8-mer, flanks averaged, mean of replicates
Direction: higher = stronger binding
Sequence | E-score
AAACCCCG | -0.146
AAACAAGC | 0.0336
GGGCGAGA | -0.296
GACGTAGA | -0.172
AAACACTC | 0.144
GAAGAATA | 0.21

Series 2
Target: RNA binding protein fox-1 homolog 2, RRM domain, GST-SBP tag (RBFOX2, Homo sapiens, UniProt O43251-10, residues 100-194)
Technique: RNA Bind-n-Seq
Form: RNA
Medium: in vitro
Concentration: 365 nM
Setting: natural RNA segment, single round, ends assumed
Relative to: no-protein control
Direction: higher = stronger binding
Sequence | RBNS enrichment (R)
GGGAGUUCUACAGUCCGACGAUCUGUCUCUAAAAGAAAAAAGAAUUAACAUCUUAUUUUCUUAGAUUUUAAGAGAGAGUCUCUGGCAAGACCCCCCUCAUCAGUUCUAAUCAUUUUAGAAGUAGACAGAAAAAUGGAAUUCUCGGGUGCCAA | 0.44
GGGAGUUCUACAGUCCGACGAUCGGCCUCAGUUGCCCUGGCAGAAAAAUGGAUUCAACUUGGCCUUUCUGAAGGCAAGACUGGGAUUGGAUCACUUCUUAAACUUCCAGUUAAGAAUCUAGGUCCGCCCUCAAUGGAAUUCUCGGGUGCCAA | 0.36
GGGAGUUCUACAGUCCGACGAUCAGCGGCUGGAUCUCCAGGGACGCGUCUUGAGCUGAGACGCUUUGAAAGCCAGGGUGAUGCUCAGACAGUGUGCCAGCCAAAAUGACUUGGGGGAGGGGAGCCGCUUCCCCUGGAAUUCUCGGGUGCCAA | 0.53
GGGAGUUCUACAGUCCGACGAUCAUGAAUGGGCAAUGUUGUGUUGAUACGCAGCCGAGUUCUACGUUAUGUGCUGUGACUGUGCAGCUGGACGACCCCCAUCCCCAGGAGGCAGUUUCCAGACAGGAGAGCAAUGGAAUUCUCGGGUGCCAA | 0.968

Series 3
Target: CREBL2, bZIP domain (human)
Technique: DHFR protein complementation
Medium: yeast
Setting: single substitutions, most at no-binding floor
Relative to: wild-type JUN-FOS pair
Direction: higher = stronger binding
Starting sequence: JUN, bZIP domain (human); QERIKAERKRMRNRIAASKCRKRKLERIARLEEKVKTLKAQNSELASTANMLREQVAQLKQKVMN; partner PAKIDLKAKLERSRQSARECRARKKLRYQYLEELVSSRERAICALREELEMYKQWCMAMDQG
Substitution | binding fitness
Q41N | -1.3 natural log
K36V | -1.53 natural log
A49V | -1.34 natural log
E44S | -1.53 natural log
N42T | -1.56 natural log
Q41M | -1.54 natural log
E32L | -1.41 natural log

Mixed results
Molecule | target | assay | test system | setting | how to read | quantity | value
PhoQ, residues 284 288 289 292 302 303 TLASMF | PhoP, residues 12 14 15 18 19 NIMAP (Escherichia coli, UniProt P23836) | Sort-seq, refers to: YFP reporter | E. coli | PhoQ-PhoP variant library, added: 10 µM Mg2+ | relative to: high Mg2+ state, higher = stronger signaling | fold induction | 1.73

Repeated from above (series 2):
Sequence | RBNS enrichment (R)
GGGAGUUCUACAGUCCGACGAUCUGUCUCUAAAAGAAAAAAGAAUUAACAUCUUAUUUUCUUAGAUUUUAAGAGAGAGUCUCUGGCAAGACCCCCCUCAUCAGUUCUAAUCAUUUUAGAAGUAGACAGAAAAAUGGAAUUCUCGGGUGCCAA | 0.44
GGGAGUUCUACAGUCCGACGAUCGGCCUCAGUUGCCCUGGCAGAAAAAUGGAUUCAACUUGGCCUUUCUGAAGGCAAGACUGGGAUUGGAUCACUUCUUAAACUUCCAGUUAAGAAUCUAGGUCCGCCCUCAAUGGAAUUCUCGGGUGCCAA | 0.36
